Experimental data pooled from the literature.
Compare with care: the assays were run in different laboratories.
Target: Prostaglandin G/H synthase 1 (PTGS1, Ovis aries, UniProt P05979)
Sequence of UniProt P05979 (whole entry, looked up): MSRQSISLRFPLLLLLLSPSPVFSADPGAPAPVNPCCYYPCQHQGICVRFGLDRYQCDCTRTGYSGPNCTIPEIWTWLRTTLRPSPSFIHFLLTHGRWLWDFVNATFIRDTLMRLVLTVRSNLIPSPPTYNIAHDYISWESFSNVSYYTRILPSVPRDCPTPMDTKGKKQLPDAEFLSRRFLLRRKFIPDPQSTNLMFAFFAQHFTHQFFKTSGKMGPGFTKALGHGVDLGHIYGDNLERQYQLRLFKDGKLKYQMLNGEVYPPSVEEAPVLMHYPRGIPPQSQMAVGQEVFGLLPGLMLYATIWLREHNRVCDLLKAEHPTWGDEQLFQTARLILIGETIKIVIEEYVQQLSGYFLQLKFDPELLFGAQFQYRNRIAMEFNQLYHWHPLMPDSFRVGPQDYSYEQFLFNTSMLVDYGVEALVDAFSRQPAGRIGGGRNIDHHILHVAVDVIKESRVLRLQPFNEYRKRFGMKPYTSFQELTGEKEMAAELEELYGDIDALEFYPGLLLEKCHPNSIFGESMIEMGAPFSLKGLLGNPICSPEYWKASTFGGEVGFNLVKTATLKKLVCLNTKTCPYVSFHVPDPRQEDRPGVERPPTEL

SMILES	read-out	mode	method	pH	IC50 [µM]
O=c1[nH]c(=S)[nH]c2c1C(c1cc(/N=N/c3ccc(Br)cc3)ccc1O)c1c([nH]c(=S)[nH]c1=O)N2	enzyme activity	inhibitor	ELISA		9.2
c1ccc(-c2cc3ccccc3o/c2=N\c2cccnc2)cc1	enzyme activity	inhibitor			0.0097
O=c1[nH]c(=S)[nH]c2c1C(c1cc(/N=N/c3ccc(F)c(Cl)c3)ccc1O)c1c([nH]c(=S)[nH]c1=O)N2	enzyme activity	inhibitor	ELISA		10.5
C=Cc1ccc(/N=c2\oc3ccccc3cc2-c2ccccc2)cc1	enzyme activity	inhibitor			0.0137
CCNC(=O)NC(=O)COC(=O)c1cn(-c2ccccc2)nc1-c1ccc(C)cc1C	enzyme activity	inhibitor	absorbance		8.42
Fc1cc(Cl)c(Nc2ccccc2Cc2nnn[nH]2)c(Cl)c1	enzyme activity	inhibitor	fluorescence		> 100
Cc1nc(N(C)C)nc(C)c1O	enzyme activity	inhibitor		pH 8	10
Brc1ccc(/N=c2\oc3ccccc3cc2-c2ccccc2)cc1	enzyme activity	inhibitor			0.0101
O=c1[nH]c(=S)[nH]c2c1C(c1cc(/N=N/c3cc(Cl)cc(Cl)c3)ccc1O)c1c([nH]c(=S)[nH]c1=O)N2	enzyme activity	inhibitor	ELISA		7.52
CN(C(=O)c1ccn2ncc(-c3ccc(C(N)=O)cc3)c2c1)c1ccc(C#N)cn1	cell-free assay	inhibitor			> 30
O=C(O)Cc1cc(F)ccc1Nc1c(Cl)cccc1Cl	enzyme activity	inhibitor	fluorescence		0.48
Fc1ccc(/C=C/N=c2\oc3ccccc3cc2-c2ccccc2)cc1	enzyme activity	inhibitor			0.0115
O=C(O)C(F)(F)c1ccccc1Nc1c(Cl)cccc1Cl	enzyme activity	inhibitor	fluorescence		> 100
COc1ccc(C(=O)CCc2cc(C(CCc3ccc(O)cc3OC)c3ccc(O)cc3)c(O)cc2OC)cc1 (racemic)	enzyme activity		purified enzyme		> 10

Repeated from above:
SMILES	read-out	mode	method	pH	IC50 [µM]
COc1ccc(C(=O)CCc2cc(C(CCc3ccc(O)cc3OC)c3ccc(O)cc3)c(O)cc2OC)cc1 (racemic)	enzyme activity		purified enzyme		> 10
